{"data": "Published values of several laboratories", "note": "Every numbered part comes from another study and shows a few of its results, in no order.", "sequence of UniProt Q94JM3 (whole entry, looked up)": "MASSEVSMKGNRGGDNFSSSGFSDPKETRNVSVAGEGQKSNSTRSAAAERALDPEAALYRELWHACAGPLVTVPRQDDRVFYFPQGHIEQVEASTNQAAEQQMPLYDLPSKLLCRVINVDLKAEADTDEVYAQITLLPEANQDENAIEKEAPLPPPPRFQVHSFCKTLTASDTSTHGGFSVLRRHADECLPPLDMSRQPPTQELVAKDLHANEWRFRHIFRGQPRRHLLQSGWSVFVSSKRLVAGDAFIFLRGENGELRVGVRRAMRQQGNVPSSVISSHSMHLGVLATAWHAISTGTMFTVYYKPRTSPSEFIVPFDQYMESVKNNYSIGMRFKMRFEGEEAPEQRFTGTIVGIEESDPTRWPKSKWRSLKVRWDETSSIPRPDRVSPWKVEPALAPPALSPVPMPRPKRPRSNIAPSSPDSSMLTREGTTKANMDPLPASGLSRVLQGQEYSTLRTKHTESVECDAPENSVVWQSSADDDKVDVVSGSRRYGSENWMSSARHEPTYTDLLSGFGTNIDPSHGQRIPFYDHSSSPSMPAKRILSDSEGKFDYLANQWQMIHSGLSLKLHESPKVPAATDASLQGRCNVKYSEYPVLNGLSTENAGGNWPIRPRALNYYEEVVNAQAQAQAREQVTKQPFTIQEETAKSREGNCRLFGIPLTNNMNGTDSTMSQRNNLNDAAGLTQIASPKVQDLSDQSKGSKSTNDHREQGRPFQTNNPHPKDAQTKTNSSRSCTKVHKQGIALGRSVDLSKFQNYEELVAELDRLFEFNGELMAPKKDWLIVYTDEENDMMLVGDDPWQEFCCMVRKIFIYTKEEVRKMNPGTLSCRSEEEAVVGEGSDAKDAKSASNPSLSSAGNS", "sequence of UniProt Q8L7G0 (whole entry, looked up)": "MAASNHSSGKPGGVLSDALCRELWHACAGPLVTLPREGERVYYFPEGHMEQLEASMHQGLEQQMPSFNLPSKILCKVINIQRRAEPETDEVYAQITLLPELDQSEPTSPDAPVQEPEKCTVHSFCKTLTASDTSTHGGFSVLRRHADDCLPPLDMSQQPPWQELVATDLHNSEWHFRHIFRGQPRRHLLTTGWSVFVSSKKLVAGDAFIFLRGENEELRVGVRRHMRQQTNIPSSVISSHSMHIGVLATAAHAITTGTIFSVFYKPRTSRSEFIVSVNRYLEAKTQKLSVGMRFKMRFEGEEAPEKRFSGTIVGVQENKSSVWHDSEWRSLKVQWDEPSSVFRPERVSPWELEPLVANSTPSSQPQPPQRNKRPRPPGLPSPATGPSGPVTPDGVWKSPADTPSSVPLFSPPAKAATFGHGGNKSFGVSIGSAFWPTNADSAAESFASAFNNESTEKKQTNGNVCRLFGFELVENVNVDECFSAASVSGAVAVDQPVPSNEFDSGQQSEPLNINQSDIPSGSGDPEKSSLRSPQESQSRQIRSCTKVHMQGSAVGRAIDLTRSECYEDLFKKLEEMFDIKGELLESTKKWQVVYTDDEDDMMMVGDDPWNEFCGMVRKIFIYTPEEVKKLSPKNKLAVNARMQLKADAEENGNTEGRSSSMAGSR", "sequence of UniProt O23661 (whole entry, looked up)": "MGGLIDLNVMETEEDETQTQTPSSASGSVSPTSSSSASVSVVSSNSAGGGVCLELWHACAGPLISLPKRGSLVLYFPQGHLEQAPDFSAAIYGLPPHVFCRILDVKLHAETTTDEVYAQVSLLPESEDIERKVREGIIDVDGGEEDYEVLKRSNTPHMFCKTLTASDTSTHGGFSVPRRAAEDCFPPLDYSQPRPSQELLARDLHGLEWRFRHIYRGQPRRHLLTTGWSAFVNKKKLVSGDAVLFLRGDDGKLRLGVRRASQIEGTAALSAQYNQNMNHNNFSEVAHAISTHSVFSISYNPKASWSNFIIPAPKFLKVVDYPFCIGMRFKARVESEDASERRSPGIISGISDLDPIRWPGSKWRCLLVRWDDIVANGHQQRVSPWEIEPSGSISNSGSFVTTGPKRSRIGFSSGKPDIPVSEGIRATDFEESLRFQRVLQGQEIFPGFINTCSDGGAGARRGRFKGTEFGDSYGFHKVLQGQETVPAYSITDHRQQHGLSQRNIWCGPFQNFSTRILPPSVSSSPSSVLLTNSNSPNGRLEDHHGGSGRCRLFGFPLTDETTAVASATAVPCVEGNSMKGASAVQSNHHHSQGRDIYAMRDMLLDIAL", "sequence of UniProt P93024 (whole entry, looked up)": "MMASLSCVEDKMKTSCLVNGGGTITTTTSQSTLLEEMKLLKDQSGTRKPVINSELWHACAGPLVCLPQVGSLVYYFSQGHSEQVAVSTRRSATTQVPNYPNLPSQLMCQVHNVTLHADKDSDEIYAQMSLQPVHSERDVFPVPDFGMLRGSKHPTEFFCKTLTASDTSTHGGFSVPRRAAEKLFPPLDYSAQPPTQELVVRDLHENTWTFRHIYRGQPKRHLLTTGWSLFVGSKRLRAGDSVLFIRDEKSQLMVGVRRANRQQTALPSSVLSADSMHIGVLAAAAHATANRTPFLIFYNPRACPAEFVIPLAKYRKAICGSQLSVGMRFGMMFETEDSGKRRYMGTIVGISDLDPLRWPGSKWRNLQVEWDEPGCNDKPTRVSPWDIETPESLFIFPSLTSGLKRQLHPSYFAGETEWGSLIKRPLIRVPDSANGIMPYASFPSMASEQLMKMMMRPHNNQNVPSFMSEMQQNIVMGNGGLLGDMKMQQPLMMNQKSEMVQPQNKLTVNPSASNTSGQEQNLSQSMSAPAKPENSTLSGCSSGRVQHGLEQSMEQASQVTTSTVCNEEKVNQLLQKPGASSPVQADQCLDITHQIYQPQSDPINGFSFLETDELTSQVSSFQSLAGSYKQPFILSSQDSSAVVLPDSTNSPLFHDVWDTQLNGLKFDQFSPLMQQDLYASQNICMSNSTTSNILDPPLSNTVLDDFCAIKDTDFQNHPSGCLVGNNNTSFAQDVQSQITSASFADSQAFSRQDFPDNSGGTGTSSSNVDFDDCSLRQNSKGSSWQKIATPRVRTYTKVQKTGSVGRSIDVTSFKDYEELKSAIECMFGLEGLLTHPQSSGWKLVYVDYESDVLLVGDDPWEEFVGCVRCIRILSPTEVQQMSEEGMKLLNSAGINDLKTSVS", "sequence of UniProt Q84WU6 (whole entry, looked up)": "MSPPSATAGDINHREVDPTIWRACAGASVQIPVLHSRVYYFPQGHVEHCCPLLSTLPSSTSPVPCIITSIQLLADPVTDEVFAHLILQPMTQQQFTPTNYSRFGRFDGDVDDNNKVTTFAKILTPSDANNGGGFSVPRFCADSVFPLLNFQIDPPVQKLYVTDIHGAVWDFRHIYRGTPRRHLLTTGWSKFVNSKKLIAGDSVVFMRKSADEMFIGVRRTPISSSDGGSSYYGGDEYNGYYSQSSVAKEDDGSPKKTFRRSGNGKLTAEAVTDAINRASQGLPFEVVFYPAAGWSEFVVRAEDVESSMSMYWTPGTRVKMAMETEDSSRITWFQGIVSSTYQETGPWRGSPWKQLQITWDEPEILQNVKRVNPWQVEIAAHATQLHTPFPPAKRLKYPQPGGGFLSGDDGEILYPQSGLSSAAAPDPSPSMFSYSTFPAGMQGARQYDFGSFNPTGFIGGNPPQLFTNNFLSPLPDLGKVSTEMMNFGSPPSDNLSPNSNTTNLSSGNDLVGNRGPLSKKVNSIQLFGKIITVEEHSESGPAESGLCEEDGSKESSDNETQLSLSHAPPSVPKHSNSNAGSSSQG"}
{"data": "Set 1", "Molecule": "IAA29 (Arabidopsis thaliana, UniProt Q93WC4)", "method": "two-hybrid", "direction": "higher = firmer interaction", "sequence of UniProt Q93WC4 (whole entry, looked up)": "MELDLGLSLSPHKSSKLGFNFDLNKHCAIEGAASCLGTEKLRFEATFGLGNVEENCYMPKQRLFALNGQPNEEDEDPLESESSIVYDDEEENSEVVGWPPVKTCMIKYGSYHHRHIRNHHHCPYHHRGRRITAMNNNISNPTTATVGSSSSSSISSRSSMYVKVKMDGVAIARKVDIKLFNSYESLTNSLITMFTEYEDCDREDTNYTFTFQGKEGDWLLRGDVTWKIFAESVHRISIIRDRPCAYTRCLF"}
{"partner": "ARF2 727-859 (Arabidopsis thaliana, UniProt Q94JM3)", "scale": "reference: out of 4 tests", "positive tests": 1}
{"partner": "ARF1 538-665 (Arabidopsis thaliana, UniProt Q8L7G0)", "scale": "reference: out of 4 tests", "positive tests": 0}
{"partner": "ARF5 788-902 (Arabidopsis thaliana, UniProt P93024)", "scale": "reference: out of 4 tests", "positive tests": 4}
{"partner": "ARF17 (Arabidopsis thaliana, UniProt Q84WU6)", "conditions": "weak activation fusion", "scale": "reference: out of 3 tests", "positive tests": 2}
{"partner": "ETT (Arabidopsis thaliana, UniProt O23661)", "scale": "reference: out of 2 tests", "positive tests": 0}
{"data": "Set 2", "target": "RING finger protein unkempt homolog, zinc fingers 1-6, GST-SBP tag (UNK, Homo sapiens, UniProt Q9C0B0, residues 30-357)", "method": "RNA Bind-n-Seq", "molecule type": "RNA", "sample": "in vitro", "tested at": "not given", "setting": "RNA with constant flanks, human and mouse sites, ends assumed", "reference": "input RNA pool", "direction": "higher = stronger binding", "sequence of UniProt Q9C0B0 (30-357, looked up)": "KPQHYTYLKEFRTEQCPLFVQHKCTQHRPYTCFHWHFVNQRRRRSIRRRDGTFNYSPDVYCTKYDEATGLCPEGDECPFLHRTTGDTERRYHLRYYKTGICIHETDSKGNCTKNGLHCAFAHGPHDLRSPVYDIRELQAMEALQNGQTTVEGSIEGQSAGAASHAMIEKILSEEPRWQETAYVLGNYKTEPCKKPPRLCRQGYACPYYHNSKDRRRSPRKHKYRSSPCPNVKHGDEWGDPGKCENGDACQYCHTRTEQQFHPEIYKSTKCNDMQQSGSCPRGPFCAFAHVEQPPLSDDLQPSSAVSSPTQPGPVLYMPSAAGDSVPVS"}
{"Oligonucleotide": "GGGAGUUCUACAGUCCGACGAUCUACACAGCAACACAGCACACACCUACAAGCAUCACCUUAACUGUUAGAAGAACCAAACCCAAGAAGCGGAAAAAGAGUCCAGAAAAGGGUCGUGCAGCACCAAAGACGAAGAAGAUCAAGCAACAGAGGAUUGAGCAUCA", "bound/input enrichment [ratio]": 0.502}
{"Oligonucleotide": "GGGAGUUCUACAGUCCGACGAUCUUCCACAUCAUUAUUCCAGUCAUGUGGAGCUUUGUAACUGGUCAUUUGCCUUCUUUCAUAAUUAGUGACGUAUGCGACGUAAAGCCACUAGAAAAGGCACAUCUUUUUAAUACUCAUUAUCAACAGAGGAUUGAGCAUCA", "bound/input enrichment [ratio]": 0.214}
{"Oligonucleotide": "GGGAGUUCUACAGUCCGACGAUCAAGCAGUUUGAAAGCAGAUAAAAAGUUAGAAUUUGUUCCCACAAACCUGCACAUACAACGGAUGCGAGUUCAAGAUGAUGGAGGCUCAGAUCAGAACUACGAUGUCGUCACUAUUGGAGCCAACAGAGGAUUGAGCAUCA", "bound/input enrichment [ratio]": 0.18}
{"Oligonucleotide": "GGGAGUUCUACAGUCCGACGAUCAAAGAAUGGAUAGAAUGUGCACAUGGAAUCGGUUAUACUCGGGCAGAGAAAGAGUGCAAGAUAGAAUAUGAUGAUUUCGUAGAGUGUUUGCUUCGGCAGAAAACGAUGAGACGUGCAGGUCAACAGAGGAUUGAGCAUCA", "bound/input enrichment [ratio]": 1.54}
{"Oligonucleotide": "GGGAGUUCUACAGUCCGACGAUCUGGCAUACAGACCAGUUUUAGGACUGGUAAUCCAACAGGGACUUACCAGAACGGUUAUGAUAGCACUCAGCAAUAUGGAAGUAAUGUUGCAAAUAUGCACAAUGGUAUGAACCAACAGGCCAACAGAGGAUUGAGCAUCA", "bound/input enrichment [ratio]": 0.141}
{"Oligonucleotide": "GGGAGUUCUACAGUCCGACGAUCCCGUUUGACAACACUACCUACAAGAACCUGCAGCAUCAUGACUACAGCACGUACACCUUCUUAGACCUCAACCUCGAACUCUCAAAAUUCAGGAUGCCUCAGCCCUCCUCAGGCCGGGAGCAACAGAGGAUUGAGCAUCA", "bound/input enrichment [ratio]": 0.405}
{"Oligonucleotide": "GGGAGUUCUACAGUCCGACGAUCUGGAACACAGUUCUGUAAAAUUUUCAUAAGAUUCCUUGGCAAUAACAUACGCUUGUGAUGGACCCUAGAAAUACUGCUAUGUUAGGAUUGGGUUCUGAUUCCGAAGGUUUUUCAAGAAAGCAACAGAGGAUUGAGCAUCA", "bound/input enrichment [ratio]": 0.374}
{"Oligonucleotide": "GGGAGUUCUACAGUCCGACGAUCGUCCAGCGUCCUCGGUGUUUUUUUGACAUUGCCAUUAAUAAUCAACCUGCUGGAAGAGUUGUCUUUGAAUUAUUUUCCGAUGUAUGUCCCAAAACGUGUGAGAACUUUCGCUGCCUUUGCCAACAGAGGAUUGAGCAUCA", "bound/input enrichment [ratio]": 0.37}
{"data": "Set 3", "target": "PABPC1L2, full length, GST fusion (mouse, UniProt A0ABA7IW68)", "method": "RNAcompete", "molecule type": "RNA", "sample": "in vitro", "tested at": "20 nM", "setting": "7-mer, probes averaged, single round", "reference": "mean of 7-mers", "direction": "higher = stronger binding", "Target sequence (chain)": "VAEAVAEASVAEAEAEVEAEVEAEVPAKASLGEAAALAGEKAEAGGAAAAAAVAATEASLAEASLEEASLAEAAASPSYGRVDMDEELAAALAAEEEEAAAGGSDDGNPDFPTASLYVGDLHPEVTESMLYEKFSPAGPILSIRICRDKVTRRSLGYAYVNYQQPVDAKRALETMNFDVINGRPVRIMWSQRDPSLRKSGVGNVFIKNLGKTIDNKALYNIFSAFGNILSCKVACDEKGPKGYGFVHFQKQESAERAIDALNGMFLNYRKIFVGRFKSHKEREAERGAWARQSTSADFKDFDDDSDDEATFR"}
{"Oligonucleotide": "CGUGUCC", "7-mer Z-score": -0.403}
{"Oligonucleotide": "GCAGAAU", "7-mer Z-score": 0.0478}
{"Oligonucleotide": "CCUGGCA", "7-mer Z-score": -0.229}
{"Oligonucleotide": "ACGACGU", "7-mer Z-score": -0.0536}
{"Oligonucleotide": "UGGUUCU", "7-mer Z-score": -0.277}
{"Oligonucleotide": "ACUGAUG", "7-mer Z-score": -0.175}
{"Oligonucleotide": "ACGCUUG", "7-mer Z-score": -0.179}
{"Oligonucleotide": "CGUCUUU", "7-mer Z-score": -0.382}
{"data": "Other studies, line by line"}
{"Molecule": "PIPVGDIYK", "target": "HLA class I histocompatibility antigen, A alpha chain, allele A*80:01 (Homo sapiens, UniProt P04439)", "assay": "peptide-MHC binding", "system": "peptide", "conditions": "concentration not given", "quantity": "binding", "result": "inactive"}
{"note": "Repeated from above (set 3):"}
{"Oligonucleotide": "CGUCUUU", "7-mer Z-score": -0.382}
